{"data": "Published values from different studies", "note": "Lines come from different studies, so protocols differ. ± gives the spread as reported."}
{"Structure (SMILES)": "COc1cc(C[C@H]2COC(=O)[C@@H]2Cc2ccc(O)c(OC)c2)ccc1O", "cell line": "neuroblastoma M2, no MYCN induction", "assay": "cell viability, SRB", "conditions": "without doxycycline", "IC50": "3.7 µg/mL"}
{"Structure (SMILES)": "CCc1cc2ncc(CN3CCN(c4ccc(C(=O)NC)nc4)CC3)cc2[nH]c1=O", "cell line": "A549 wild type", "assay": "PARylation, inhibitor", "IC50": "0.00229 µM"}
{"Structure (SMILES)": "Cc1cc(Nc2ncnc3ccc(NC4=NC(C)(C)CO4)cc23)ccc1Oc1ccn2ncnc2c1", "cell line": "Ba/F3 expressing HER2 L755A", "assay": "cell growth, inhibitor, CellTiter-Glo", "IC50": "0.195 µM"}
{"Structure (SMILES)": "CC1(C)COc2ccc(F)cc2CN2c3nc4c(cnn4cc3OC[C@H]2C(F)F)C(=O)N1", "cell line": "ALK-fusion cell lines", "assay": "cell viability", "IC50": "0.019 µM"}
{"Structure (SMILES)": "Cc1ncsc1-c1ccc(CNC(=O)[C@@H]2C[C@@H](O)CN2C(=O)[C@@H](NC(=O)C2(F)CC2)C(C)(C)C)c(OCCOc2ccc(CN3CCN(c4cc(-c5ccccc5O)nnc4N)CC3)cc2)c1", "cell line": "normal prostate epithelial cells", "assay": "cell viability, CellTiter-Glo", "conditions": "7 days", "IC50": "0.132 µM"}
{"Structure (SMILES)": "COc1cc(-c2cc(C(C)=O)n3ccccc23)c(OC)cc1Cn1ccnc1", "cell line": "MV4-11", "assay": "cell growth, CellTiter-Glo", "IC50": "0.07 µM"}
{"Structure (SMILES)": "CC(=O)O[C@@H]1CC[C@@]2(C)[C@@H](CC[C@]3(C)[C@@H]2C(=O)C=C2[C@@H]4[C@@H](C)[C@H](C)CC[C@]4(C)CC[C@]23C)[C@@]1(C)C(=O)O", "cell line": "LPS-activated RAW264.7", "assay": "cytotoxicity, MTT", "conditions": "24 h", "IC50": "58.6 µM"}
{"Structure (SMILES)": "CCCCN1C[C@H](O)[C@@H](O)[C@H](O)[C@H]1CO", "cell line": "GM2 AB-variant fibroblasts", "assay": "glycosphingolipid level, LC-MS/MS, item: HexCer", "IC50": "3.6 µM"}
{"Structure (SMILES)": "COc1c(Cl)cccc1Nc1c(-c2ccncc2OC[C@@H]2COCCO2)[nH]c2c1C(=O)NCC2", "cell line": "Ba/F3 expressing HER2 L755A", "assay": "cell growth, inhibitor, CellTiter-Glo", "IC50": "0.007 µM"}
{"Structure (SMILES)": "CC(C)(C)Cn1c(N)nc2ccc(-c3[nH]c(C(C)(C)C)nc3-c3ccc(F)cc3)nc21", "cell line": "Ba/F3 expressing EGFR G719C", "assay": "cell viability", "conditions": "without IL-3", "IC50": "0.065 µM"}
{"Structure (SMILES)": "CC(C)n1ncnc1-c1cn2c(n1)-c1ccc(O[C@@H](C)C(N)=O)cc1OCC2", "cell line": "SW48 PIK3CA H1047R", "conditions": "96 h", "IC50": "0.0271 µM"}
{"Structure (SMILES)": "CS(=O)(=O)CCNCc1ccc(-c2ccc3ncnc(Nc4ccc(OCc5cccc(F)c5)c(Cl)c4)c3c2)o1", "cell line": "Ba/F3 expressing HER2 L755A", "assay": "cell growth, inhibitor, CellTiter-Glo", "IC50": "0.308 µM"}
{"Structure (SMILES)": "COc1cc2c(Oc3ccc(NC(=O)C4(C(=O)Nc5ccc(F)cc5)CC4)cc3F)ccnc2cc1OCCCN1CCOCC1", "cell line": "SUP-M2 (NPM-ALK)", "assay": "cell growth", "conditions": "3 days", "IC50": "0.52 ± 0.04 µM"}
{"Structure (SMILES)": "COc1ccc(F)cc1C(=O)NCc1ccc(-c2nn([C@@H](C)C(F)(F)F)c(N)c2C(N)=O)cc1", "cell line": "Rec1", "assay": "item: CCL3", "conditions": "24 h", "IC50": "0.0043 µM"}
{"Structure (SMILES)": "Cc1nc(NC(=O)N2CCC[C@H]2C(N)=O)sc1-c1ccnc(C(C)(C)C(F)(F)F)c1", "cell line": "HCC1954", "assay": "western blot, item: phospho-PKB/Akt Ser473", "conditions": "2 h", "IC50": "0.149 µM"}
{"Structure (SMILES)": "O=C1C(=O)N(CCn2ncc3c(=O)[nH]cnc32)c2ccc(F)cc21", "cell line": "A498", "assay": "cell growth, SRB", "conditions": "72 h", "IC50": "12.8 ± 1.23 µg/mL"}
{"Structure (SMILES)": "CCCCCN1C[C@H](O)[C@@H](O)[C@H](O)[C@@H]1CO", "cell line": "GM2 AB-variant fibroblasts", "assay": "glycosphingolipid level, LC-MS/MS, item: HexCer", "IC50": "0.46 µM"}
{"Structure (SMILES)": "CC(C)(C)c1cnc(CSc2cnc(NC(=O)C3CCN(C(=O)CCCCCCCN4Cc5cc6c(cc5C4)C(=O)N(C4CCC(=O)NC4=O)C6=O)CC3)s2)o1 (centres unmarked)", "cell line": "RH5 rhabdomyosarcoma", "assay": "cell viability, MTT", "IC50": "0.0024 µM"}
{"Structure (SMILES)": "COc1cc(N2CCC(N3CCN(C)CC3)CC2)ccc1Nc1ncc(Cl)c(Nc2ccccc2P(C)(C)=O)n1", "cell line": "Ba/F3 EML4-ALK v3, no mutation", "assay": "cell viability", "IC50": "0.007 µM"}
{"Structure (SMILES)": "CON(C)C(=O)N1N=C(c2cc(F)ccc2F)S[C@@]1(CCCN)c1ccccc1", "cell line": "human CD34+ haematopoietic cells", "assay": "cell viability, CellTiter-Glo", "conditions": "3 days", "IC50": "0.0013 ± 0.0004 µM"}
{"Structure (SMILES)": "CC(=O)O[C@H]1C(=O)[C@@]2(C)[C@H]([C@H](OC(=O)c3ccccc3)[C@]3(O)C[C@H](OC(=O)[C@H](O)[C@@H](NC(=O)c4ccccc4)c4ccccc4)C(C)=C1C3(C)C)[C@]1(OC(C)=O)CO[C@@H]1C[C@@H]2O", "cell line": "C6", "assay": "cell viability, MTT", "conditions": "24 h", "IC50": "0.9 ± 0.11 µg/mL"}
{"Structure (SMILES)": "O=C(O)COCC(=O)O", "cell line": "hepatocytes, iPSC-derived, line W1", "assay": "cell viability, RealTime-Glo MT", "conditions": "48 h, differentiation day 23", "IC50": "11800 µM"}
{"Structure (SMILES)": "CNCc1ccc(-c2[nH]c3cc(F)cc4c3c2CCNC4=O)cc1", "cell line": "A549 wild type", "assay": "PARylation, inhibitor", "IC50": "0.0101 µM"}
{"Structure (SMILES)": "C[C@@H]1CN(C(=O)c2ccc(NC(=O)c3cc(O[C@H](C)c4c(Cl)ccc(F)c4Cl)c(N)nn3)cc2)C[C@H](C)N1", "cell line": "ALK-fusion cell lines", "assay": "cell viability", "IC50": "0.014 µM"}
{"Structure (SMILES)": "Nc1nnc(-c2ccccc2O)cc1N1CC2CCC(C1)N2c1ccnc(F)c1", "cell line": "NCI-H522 SMARCA4/SMARCA2-deficient", "assay": "cell viability, CellTiter-Glo", "conditions": "168 h", "IC50": "> 1 µM"}
{"Structure (SMILES)": "C[C@H](Nc1ccc2c(c1)OCCn1cc(N3C(=O)OC[C@H]3C(F)F)nc1-2)C(N)=O", "cell line": "HCC1954", "assay": "growth rate inhibition, CellTiter-Glo", "conditions": "120 h", "IC50": "0.118 µM"}
{"Structure (SMILES)": "[NH2][Pt]([NH2])([Cl])([Cl])([O]C(=O)CCCc1ccccc1)[O]C(=O)C(Cl)Cl", "cell line": "LoVo oxaliplatin-resistant", "assay": "cytotoxicity, MTT", "conditions": "72 h", "IC50": "0.037 ± 0.02 µM"}
{"Structure (SMILES)": "COc1cccc2c1C(=O)c1c(O)c3c(c(O)c1C2=O)C[C@@](O)(C(=O)CO)C[C@@H]3O[C@H]1C[C@H](N)[C@H](O)[C@H](C)O1", "cell line": "HeLa expressing wild-type P-gp", "assay": "cell viability", "conditions": "48 h", "IC50": "0.226 ± 0.015 µM"}
{"Structure (SMILES)": "CC(=O)c1c(O)c(C)c(O)c2c1OC1=CC(=O)C(C(C)=O)C(=O)C12C (single isomer, unassigned; (+))", "cell line": "hepatocytes, iPSC-derived, line W1", "assay": "cell viability", "conditions": "72 h", "IC50": "15 µM"}
{"Structure (SMILES)": "Cc1c(C(=O)O)ccc2c3n(nc12)[C@@H]1[C@H](C3)N(CC2CC2)[C@@]2(C(=O)Nc3cc(Cl)ccc32)[C@H]1c1cccc(Cl)c1F", "cell line": "DK-MG (MDM2-amplified)", "assay": "cell proliferation, alamarBlue", "conditions": "120 h", "IC50": "0.006 µM"}
{"Structure (SMILES)": "O=C(c1cc(Cc2n[nH]c(=O)c3ccccc23)ccc1F)N1CCN(C(=O)C2CC2)CC1", "cell line": "A549 wild type", "assay": "PARylation, inhibitor", "IC50": "0.0208 µM"}
{"Structure (SMILES)": "Cc1c(C)c2c(c(C)c1O)CCC(C)(COc1ccc(CC3SC(=O)NC3=O)cc1)O2 (centres unmarked)", "cell line": "hepatocytes, iPSC-derived, line W1", "assay": "cell viability, RealTime-Glo MT", "conditions": "72 h, differentiation day 23", "IC50": "16 µM"}
{"Structure (SMILES)": "COc1cc([C@@H]2c3cc4c(cc3[C@@H](O[C@@H]3O[C@@H]5CO[C@@H](C)O[C@H]5[C@H](O)[C@H]3O)[C@H]3COC(=O)[C@H]23)OCO4)cc(OC)c1O", "cell line": "HeLa expressing wild-type P-gp", "assay": "cell viability", "conditions": "48 h", "IC50": "4.5 ± 0.35 µM"}
{"Structure (SMILES)": "C=CC(=O)N1CCC(COCC(=O)N2CCN(c3nc(-c4cnc(N)nc4C(F)F)nc(N4CCOC[C@@H]4C)n3)CC2)CC1", "cell line": "HCC1954", "assay": "western blot, item: phospho-S6 Ser235/Ser236", "conditions": "2 h", "IC50": "0.0564 µM"}
{"Structure (SMILES)": "CCOC(=O)C1=C(C)NC(=S)NC1c1cccc(O)c1 (centres unmarked)", "cell line": "human CD34+ haematopoietic cells", "assay": "cell viability, CellTiter-Glo", "conditions": "3 days", "IC50": "28.9 ± 5 µM"}
{"Structure (SMILES)": "CCCCN1C[C@H](O)[C@@H](O)[C@@H](O)[C@H]1CO", "cell line": "sample E patient fibroblasts", "assay": "Gb3 level lowering, LC-MS/MS, item: Gb3 d18:1/24:0", "conditions": "216 h", "IC50": "54.4 µM"}
{"Structure (SMILES)": "C[C@H](Nc1ccc2c(c1)OCCn1cc(N3C(=O)OC[C@H]3C(F)F)nc1-2)C(N)=O", "cell line": "HCC1954", "assay": "western blot, item: phospho-PKB/Akt Ser473", "conditions": "2 h", "IC50": "0.0206 µM"}
{"Structure (SMILES)": "CC[C@@H](C)[C@H](N)C(=O)N1Cc2ccccc2C1", "cell line": "MV4-11", "assay": "cell viability, CellTiter-Glo", "conditions": "day 2", "IC50": "1.2 µM"}
{"Structure (SMILES)": "Cc1cc(Nc2ncc(Cl)c(Nc3ccccc3S(=O)(=O)C(C)C)n2)c(OC(C)C)cc1C1CCNCC1", "cell line": "SUP-M2 (NPM-ALK)", "assay": "cell growth", "conditions": "3 days", "IC50": "0.02 ± 0.003 µM"}
{"Structure (SMILES)": "Cc1nc(NC(=O)N2CCC[C@H]2C(N)=O)sc1-c1ccnc(C(C)(C)C(F)(F)F)c1", "cell line": "KPL4", "assay": "CellTiter-Glo", "conditions": "120 h", "IC50": "0.687 µM"}
{"Structure (SMILES)": "Cc1ncsc1-c1ccc([C@H](C)NC(=O)[C@@H]2C[C@@H](O)CN2C(=O)[C@@H](NC(=O)CN2CCN(c3cc(-c4ccccc4O)nnc3N)CC2)C(C)(C)C)cc1", "cell line": "normal prostate epithelial cells", "assay": "cell viability, CellTiter-Glo", "conditions": "7 days", "IC50": "0.0877 µM"}
{"Structure (SMILES)": "Cc1[nH]c(/C=C2\\C(=O)Nc3ccc(S(=O)(=O)N(C)c4cccc(Cl)c4)cc32)c(C)c1C(=O)N1CCN(C)CC1", "cell line": "SUP-M2 (NPM-ALK)", "assay": "cell growth", "conditions": "3 days", "IC50": "2.92 ± 0.34 µM"}
{"Structure (SMILES)": "N[C@@H](CC(=O)N1CCN(C(c2ccc(F)cc2)c2ccc(F)cc2)CC1)C(=O)N1Cc2ccccc2C1", "cell line": "MV4-11", "assay": "cell viability, CellTiter-Glo", "conditions": "day 2", "IC50": "1.6 µM"}
{"Structure (SMILES)": "COC[C@H](NC(=O)c1ccn(S(C)(=O)=O)c1)C(=O)Nc1nc(-c2cccc(N3C[C@@H](C)O[C@@H](C)C3)n2)cs1", "cell line": "NCI-H522 SMARCA4/SMARCA2-deficient", "assay": "cell viability, CellTiter-Glo", "conditions": "168 h", "IC50": "> 1 µM"}
